Results pooled from the literature.
Protocols differ between the studies behind these lines. “And” joins repeats or separate records; there may be more than shown.
Target: Tyrosine-protein kinase ITK/TSK (ITK, Homo sapiens, UniProt Q08881)

| SMILES | assay | setting | scale | endpoint | value |
| --- | --- | --- | --- | --- | --- |
| C=CC(=O)N1CCc2ccc(-n3c(=O)ccc4cnc5ccc(-c6cnn(C)c6)cc5c43)cc21 | KINOMEscan | 1 µM | reference: DMSO control | remaining binding | 92% |
| COCC12C(=O)NC3C4(C(OC)CC1O)C1CC5(O)C(OC)C(O)C(OC(C)=O)(C1C5OC(=O)c1ccccc1)C3(O)C(OC)C24 (stereo not shown) | kinase activity, inhibitor, ProQinase kinase profiling | 25 µM | reference: control | remaining activity | 111% and 106% |
| COc1c(OCCCN2CCOCC2)ccc2c1N=C(NC(=O)c1cnc(N)nc1)N1CCN=C21 | kinase activity, inhibitor | 1 µM | reference: untreated control | remaining activity | 105% |
| C[C@H]1CN(C(=O)c2cn(-c3ccnc(N)n3)c3cc(C#CC4(O)CCCCC4)ccc23)CCN1 | enzyme activity, inhibitor, FRET | 1 µM | – | inhibition | 8% |
| CC(C)=CC1OC(C)(C)C2C=C3C(=O)C(Cl)=CC(O)C3C3C(O)C4OC4C(=O)C132 (stereo not shown) | cell-free assay, competition with immobilised ligand | 10 µM | – | remaining binding | 90% |
| Cc1ccc(-c2c(/C=C(\C#N)C(=O)NC(C)C)n(CCCO)c3ncnc(N)c23)cc1 | cell-free assay, competition with immobilised ligand | 1 µM | – | remaining binding | 76% |
| CN1CC[C@@H](COc2cnc(C#N)cc2-c2ccn3nc(NC(=O)C4CC4)cc3c2)C1 | enzyme activity, inhibitor | 1 µM | – | inhibition | 6% |
| C=CC(=O)N1Cc2nc(-c3cc(-c4cc(Cl)cnc4Cl)c(F)cc3F)n(-c3ccncn3)c2C1 | cell-free assay, inhibitor | 1 µM | – | inhibition | 12.9% |
| COc1cc(Nc2nc(C)cc(-c3cnn4nc(OC)ccc34)n2)cc(C(F)(F)F)c1 | inhibitor | 1 µM | reference: control | remaining activity | 82% |
| O=C(Cc1ccc(OCc2ccccc2)cc1)NC1(C(=O)O)CCN(C(=O)c2ccc(-c3cccc(Cl)c3)cc2)CC1 | enzyme activity, inhibitor | 10 µM | – | activity vs control | 137% |
| Cc1cnc2nc1Nc1cccc(c1)COC/C=C/COCc1cc(ccc1OCCN1CCOCC1)N2 | cell-free assay | 0.1 µM | – | remaining signal | 90% |
| NC(=O)C[C@H]1CCc2sc3ncnc(O[C@H]4CC[C@H](N5CCOCC5)CC4)c3c21 | enzyme activity, inhibitor | 10 µM | – | inhibition | 0% |
| CNC(=O)C1CCN(c2cc(C)c(F)cc2NC(=O)c2ccc(-c3cc(O)ccc3C)c(C)c2)CC1 | binding, competition with immobilised ligand | 1 µM | – | remaining binding | 100% |
| Cc1cccc(O[C@H]2CCC[C@@H](C(C)CNCc3ccncc3)C2)c1 (relative stereo) | kinase activity, kinome panel screening | 10 µM | – | inhibition | -1% |
| C=CC(=O)Nc1cccc(-c2cnc3[nH]cc(C(=O)NC(C)(C)C)c3n2)c1 | kinase activity | 0.1 µM | – | inhibition | 50% and 65% |
| O=C=[N][Ru-4]123([n]4c5ccc(O)cc5c5c6c(c7cc(F)c[n+]1c7c54)C(=O)NC6=O)[S+]1CC[S+]2CC[S+]3CC1 (stereo not shown) | enzyme activity | 100 nM, human enzyme, with: 10 µM ATP | reference: untreated | remaining activity | 96% |

For quick reference, copied from above:
| SMILES | assay | setting | scale | endpoint | value |
| --- | --- | --- | --- | --- | --- |
| C=CC(=O)N1CCc2ccc(-n3c(=O)ccc4cnc5ccc(-c6cnn(C)c6)cc5c43)cc21 | KINOMEscan | 1 µM | reference: DMSO control | remaining binding | 92% |
| COCC12C(=O)NC3C4(C(OC)CC1O)C1CC5(O)C(OC)C(O)C(OC(C)=O)(C1C5OC(=O)c1ccccc1)C3(O)C(OC)C24 (stereo not shown) | kinase activity, inhibitor, ProQinase kinase profiling | 25 µM | reference: control | remaining activity | 111% and 106% |
